# Experimental data collected from several papers.
# Values joined by “and” are separate records of one study, mostly repeats; a detail may differ. ± marks the error that the study gave.
Compound,test,test system,setting,scale,measurement,value
CC(C)c1nc(N(C)S(C)(=O)=O)nc(-c2ccc(F)cc2)c1/C=C/[C@@H](O)C[C@@H](O)CC(=O)O,,"Wistar albino rat, both sexes, plasma","oral, 20 mg/kg, 3 h",,plasma concentration,717 ng/mL
CC(F)(F)c1cc(F)ccc1-c1sc2cc(O)ccc2c1Oc1ccc(/C=C/C(=O)O)cc1,,"human, serum","oral, 450 mg once daily, cycle 1 day 28, fasted, median",,Tlast,24 h
CCC(=O)NCC[C@@H]1CCc2cc(O)c3c(c21)CCO3,"sulfation, substrate",pooled human kidney cytosol,"50 µM, 30 min, added: 50 mM NaF",,specific activity,0.8 ± 0.01 pmol/min/mg
CCn1cc(C(=O)O)c(=O)c2ccc(C)nc21,,,,,pKa (basic),< 2
Cn1cc([C@H]2C[C@H]3CSC(N)=N[C@@]3(c3ccc(F)cc3F)CO2)cn1,,"male 129/SVE mouse, plasma","subcutaneous, 10 mg/kg, 3 h",,plasma concentration,884 nM
CCO[C@H]1CCN(Cc2c(OC)cc(C)c3[nH]ccc23)[C@H](c2ccc(C(=O)O)cc2)C1,,"human moderate hepatic impairment, plasma","oral, 200 mg single dose, median",,unbound Cmax,1050 ng/mL
COc1ccc(C[C@@H](C)[C@@H](C)Cc2ccc(OC)c(OC)c2)cc1OC,,"beagle dog female, plasma","oral, 300 mg/kg/day, day 28",,Cmax,2180 ± 483 ng/mL
COc1ccc2[nH]c([S+]([O-])Cc3ncc(C)c(OC)c3C)nc2c1 (stereo not shown),,"healthy Chinese volunteers, CYP2C19 poor metabolizers","oral, 20 mg, fasted",,t1/2,2.25 ± 0.49 h
Cc1cc(NC2CCN(C(=O)OC3CCN(C(=O)/C=C/CN(C)C)C3)CC2)n2ncc(C(C)C)c2n1 (stereo not shown),"CTCAE v4.0, measured: Anemia",patients with advanced solid tumours,"oral, dose not given, all schedules, grade 3 or higher",,patients with TEAE,9%
Cc1ccc(Sc2ccccc2N2CCNCC2)c(C)c1,any TEAE,healthy adult men,"oral, 10 mg single dose, 8 nights, fasted",,adverse event incidence,5.3%
CC[C@@H]([C@H](C)O)n1ncn(-c2ccc(N3CCN(c4ccc(OC[C@@H]5CO[C@@](Cn6cncn6)(c6ccc(F)cc6F)C5)cc4)CC3)cc2)c1=O,,rat plasma,"2 ng/mL, three freeze-thaw cycles",relative to: nominal concentration,stability relative error,-11.3%
Cc1nccc2c1c(=O)n(C)c1cc(OC[C@@H](N)CC(C)C)c(C#N)cc21,,"rat, plasma","intrathecal, 3 µg, 30 min",,concentration,3.2 nM
C=CC(=O)N1CCC(Oc2cc3c(Nc4ccc(Cl)c(Cl)c4F)ncnc3cc2OC)CC1,,"Sprague-Dawley rat, male, plasma","oral, 2 mg/kg, added: vehicle pretreatment",,CL/F,8.83 ± 1.17 mL/min/kg
Cc1cc(-c2nnc(N)nc2-c2ccc(F)cc2)cc(Cl)n1,measured: Rash,"IO-naive mCRPC patients, male","oral, dose not given, treatment-related, grade 2",,patients with immune-mediated AE,0%
O=C(COc1ccc(Cl)cc1)NC12CC(c3nnc([C@H]4C[C@@H](OC(F)(F)F)C4)o3)(C1)C2,,human both sexes,"oral, 260 mg once daily, 14 days",,participants maximum mild TEAE,71.4%
C=CC(=O)N(C)CCOc1c(N)ncnc1-c1cc(F)cc(NC(=O)c2ccc(C3CC3)cc2F)c1C,,"human, whole blood","oral, 15 mg, single ascending dose",,mean residence time,0.98 h
Cc1noc(C)c1Cn1cc(N2C(=O)CN(Cc3cccc(O)c3)C2=O)cn1,,pooled rat liver microsomes Sprague-Dawley,"10 µM, 120 min, pH 7.4",,remaining parent,105 % peak area
O=C(N[C@H](Cc1c[nH]c2ccccc12)C(=O)Nc1ccncc1)c1ccc(-c2cc(C(F)(F)F)ccc2F)cc1F,,"Swiss Webster mouse, female, heart","oral, 50 mg/kg, 2 h, 20% HPβCD vehicle",,concentration,1220 nM
CCc1cc(C(=O)NC)c2nccc(N3CCc4c(cc(Cn5ccnc5)cc4-c4cn(C)nc4C(F)(F)F)C3=O)c2c1,,Sprague Dawley rats,"oral, 100 mg/kg twice daily, 7 days",relative to: vehicle,blood HGB change,-0.56%
CC(C(=O)NCC(=O)NCC(CNC(=O)CNC(=O)C(C)N1CCN(CC(=O)[O-])CCN(CC(=O)[O-])CCN(CC(=O)[O-])CC1)(CNC(=O)CNC(=O)C(C)N1CCN(CC(=O)[O-])CCN(CC(=O)[O-])CCN(CC(=O)[O-])CC1)CNC(=O)CNC(=O)C(C)N1CCN(CC(=O)[O-])CCN(CC(=O)[O-])CCN(CC(=O)[O-])CC1)N1CCN(CC(=O)[O-])CCN(CC(=O)[O-])CCN(CC(=O)[O-])CC1.[Gd+3].[Gd+3].[Gd+3].[Gd+3] (stereo not shown),,"cynomolgus monkey, muscle","dose not given, day 58, PK group",,lanthanide tissue concentration,0.057 ± 0.078 nmol/g
COc1cc(N2CCC3(CCN(C)CC3)CC2)ccc1Nc1ncc(Cl)c(Nc2ccccc2P(C)(C)=O)n1,population PK model,human,"oral, final model",,Q/F,15.5 L/h
CN1CCN(C(=O)c2ccccc2N(Cc2ccccc2)S(C)(=O)=O)CC1,,,,,pKa,6.84
O=C1Cc2cc(CCN3CCN(c4nsc5ccccc45)CC3)c(Cl)cc2N1,,"male Hartley guinea pigs, anaesthetized","intravenous, 0.3 mg/kg group, baseline before infusion",,mean blood pressure,35 ± 0.4 mmHg
CCOc1c([C@H](C)n2nc(C)c3c(N)ncnc32)cc(Cl)c(F)c1[C@@H]1CNC(=O)C1,,previously treated B-cell malignancy patients,"oral, dose not given",,LSM change in heart rate,≤ 5.13 bpm
Cc1noc2c1-c1ccccc1C(c1ccc(Cl)cc1)=N[C@H]2CC(N)=O,,"Crl:CD1(ICR) mice, female, plasma","intravenous, 5 µmol/kg",,AUC(0-last),6.46 µM·h
Cc1cc(C)c(CNC(=O)c2cc(Cl)c3c(c2C)O[C@@](C)([C@H]2CC[C@H](N(C)C)CC2)O3)c(=O)[nH]1,,human relapsed/refractory NHL,"oral, 200 mg once daily, onset after cycle 1 day 1",,ALT increased grade ≥3,4.2%
CC[C@H](C)[C@H](NC(=O)CN)C(=O)N[C@@H](C)C(=O)N[C@@H](CCCCN)C(=O)N[C@@H](C)C(=O)N[C@H](C(=O)N[C@@H](CCCCN)C(=O)N[C@@H](CCCCN)C(=O)N[C@H](C(=O)N[C@@H](C)C(=O)N[C@@H](CCCCN)C(=O)N[C@@H](C)C(=O)N[C@@H](CC(C)C)C(=O)NCC(N)=O)[C@@H](C)CC)[C@@H](C)CC,circular dichroism at 222 nm,10 mM SDS,"100 µM, pH 4.0",,mean residue ellipticity,-6800 deg cm2/dmol
CC(C)(C(=O)N1CCOc2c(C#N)cncc2C1)C(F)F,measured: tandem gait test abnormal,"human, both sexes","oral, 15 mg twice daily, 14 days, multiple ascending dose",,subjects with TEAE,0%
CC(C)NCCCC[C@@H]1NC(=O)[C@H](Cc2ccc(O)cc2)NC(=O)[C@H](Cc2ccccc2)NC(=O)CC[C@H](C(=O)N[C@@H](CCCCNC(C)C)C(=O)N[C@@H](CCCCNC(=O)[C@H](CCC(=O)O)NC(=O)[C@H](CCC(=O)O)NC(=O)[C@H](CCC(=O)O)NC(=O)CN2CCN(CC(=O)O)CCN(CC(=O)O)CCN(CC(=O)O)CC2)C(N)=O)NC(=O)CNC(=O)[C@H](Cc2ccc3ccccc3c2)NC(=O)[C@@H](CCCNC(=N)N)NC1=O [gallium-68 labelled],,"mouse with Granta-519 xenograft, lung","intravenous, 1 h",,tissue uptake,0.62 %ID/g
CNC(=O)c1ccc(-c2cnc3ncc(Cc4ccc5ncccc5c4)n3n2)cc1F,"CTCAE v4.0, any causality",human hepatocellular carcinoma patients,"oral, 600 mg twice daily, expansion cohort at RP2D",,alkaline phosphatase increase incidence (all grades),0%
COc1ncc(-c2nc3c(n2C(C)C)[C@H](c2ccc(Cl)cc2)N(c2cc(Cl)cn(C)c2=O)C3=O)c(OC)n1,,"human patients, plasma","oral, 25 mg, cycle 1 day 1, low-dose",,median half-life,14.7 h
CN(C(=O)n1cnc(-c2ccc[n+]([O-])c2)c1)C1CCCCC1,,"cynomolgus monkey, male, plasma","oral, 1.0 mg/kg",,t1/2,2.4 h
Cc1cc(C#N)cc(C)c1Oc1nc(Nc2ccc(C#N)cc2)nc(N)c1Br,,FaSSIF,no polymer,,maximum supersaturated concentration,95 µg/mL
O=C(O)CCC(=O)O.[2H]C([2H])([2H])Oc1cc(C)c2[nH]ccc2c1CN1CC[C@@H](C2CC2)C[C@H]1c1ccc(C(=O)O)cc1,,"human, plasma","100 mg twice daily, day 10, multiple ascending dose",,CLss/F,2.29 L/h
Cc1cc(-c2nccc3c2ccn3CC(=O)Nc2ccc(-c3cnccn3)cn2)ccn1,,human,"SAD part, single 20 mg dose",,subjects with gastrointestinal disorders TEAEs,0%
CCO[C@H]1CCN(Cc2c(OC)cc(C)c3[nH]ccc23)[C@H](c2ccc(C(=O)O)cc2)C1,,"PNH patients, active haemolysis","oral, 200 mg, 8 weeks, treatment",,incidence of oropharyngeal pain,0%
COc1ccc(C(O)COc2ccc(-c3csc(-c4ccc(OCC(O)c5ccc(OC)c(OC)c5)cc4)n3)cc2)cc1OC (stereo not shown),,"C57BL/6J mice, plasma","oral, 75 mg/kg",relative to: 75 mg/kg over 10 mg/kg,AUC(0-inf) ratio,7.3
CC(C)NCC(O)COc1cccc2ccccc12 (stereo not shown),,"male Hartley guinea pigs, anaesthetized","intravenous, 3 mg/kg over 10 min, after infusion",,mean blood pressure,36 ± 0.2 mmHg
C=CCn1c(=O)c2cnc(Nc3ccc(N4CCN(C)CC4)cc3)nc2n1-c1cccc(C(C)(C)O)n1,,"human cancer patients, plasma",added: durvalumab co-administration,relative to: monotherapy lead-in,pharmacokinetics,no effect
CN(C)C(=N)N=C(N)N,measured: headache,healthy men,"oral, dose not given, 8 days, treatment-emergent, crossover trial",,subjects with adverse event,9.1%
CC(C)NCC(O)c1ccc(NS(C)(=O)=O)cc1 (racemic),,"male Hartley guinea pigs, anaesthetized","intravenous, 10 mg/kg group, baseline before infusion",,mean blood pressure,37 ± 0.2 mmHg
COCCCNC(=N)c1ccc(NC(=O)c2ccc(C(=O)Nc3ccc(C(=N)NCCCOC)cc3)cc2)cc1,,sheep erythrocytes,"1 h, pH 7.5",,maximum haemolysis,40%
CC(=O)N[C@@H](CS)C(=O)O,,human,intravenous,,permeability-surface area product,7.52 to 20.1 mL/s/mL
c1ccc(-c2nc(N3CCC(c4ccccn4)C3)c3ccccc3n2)nc1 (stereo not shown),,"female Balb/c mice, plasma","intravenous, 2 mg/kg, mean, added: ABT 2 h prior",,C0,2580 ng/mL
COCCOc1cnc2ccn([C@H](C)c3nnc4c(F)cc(-c5cnn(C)c5)cn34)c(=O)c2c1,,"patients, plasma","oral, 100 mg once daily, day 1 24 h postdose",,Ctrough,120 ng/mL
CCC(CC)C(=O)Oc1cccc(C(O)CCN)c1.O=CO (stereo not shown),scotopic ERG,BALB/cJ mice,"intraperitoneal, 10 mg/kg, 1 h dark adaptation, added: 10,000 lx photobleach, 10 min",,ERG b-wave amplitude,20 µV and 33 µV and 34 µV and 11 µV and 47 µV

# Some of these lines once more:
Compound,test,test system,setting,scale,measurement,value
CC[C@@H]([C@H](C)O)n1ncn(-c2ccc(N3CCN(c4ccc(OC[C@@H]5CO[C@@](Cn6cncn6)(c6ccc(F)cc6F)C5)cc4)CC3)cc2)c1=O,,rat plasma,"2 ng/mL, three freeze-thaw cycles",relative to: nominal concentration,stability relative error,-11.3%
Cc1nccc2c1c(=O)n(C)c1cc(OC[C@@H](N)CC(C)C)c(C#N)cc21,,"rat, plasma","intrathecal, 3 µg, 30 min",,concentration,3.2 nM
C=CC(=O)N1CCC(Oc2cc3c(Nc4ccc(Cl)c(Cl)c4F)ncnc3cc2OC)CC1,,"Sprague-Dawley rat, male, plasma","oral, 2 mg/kg, added: vehicle pretreatment",,CL/F,8.83 ± 1.17 mL/min/kg
